Published values from different studies.
Compare with care: the assays were run in different laboratories. Numbers after ± are the reported error.
Organism: Klebsiella pneumoniae

| Compound | read-out | technique | strain | matrix | time | temperature | MIC |
| --- | --- | --- | --- | --- | --- | --- | --- |
| CCCCCCCCCCCCC[C@@H](O)Cc1cc(O)cc(O)c1 | microbial growth | broth dilution | ATCC10031 |  |  |  | > 64 µg/mL |
| CCn1cc[n+](CC)[c]1[Au-][Cl] |  | broth dilution | DSM 11678 |  | 20 h | 37 °C | 18.7 ± 9.2 µM |
| CC(C)C[C@H](NC(=O)[C@H](CC(N)=O)NC(=O)[C@H](CCCNC(=N)N)NC(=O)[C@@H](CC(C)C)NC(=O)[C@H](Cc1ccccc1)NC(=O)[C@H](CC(=O)O)NC(=O)[C@H](CCCCN)NC(=O)[C@@H](CC(C)C)NC(=O)[C@H](CCCNC(=N)N)NC(=O)[C@H](CCC(N)=O)NC(=O)[C@@H](NC(=O)[C@@H](CC(C)C)NC(=O)[C@H](CCCNC(=N)N)NC(=O)[C@H](CCCCN)NC(=O)[C@H](Cc1ccc(C(F)(F)F)cc1)NC(=O)CN)C(C)C)C(=O)N[C@H](C(N)=O)C(C)C |  | broth microdilution | ATCC 13883 |  |  |  | 50 µM |
| COc1c(NC(=O)c2ccc(NC(=O)c3ccc(NC(=O)[C@H](CC#N)NC(=O)c4ccc(NC(=O)/C(C)=C/c5ccc(O)cc5)cc4)cc3)c(OC)c2O)ccc(C(=O)O)c1O | microbial growth |  | DSM30104 |  |  |  | > 64 µg/mL |
| CC[P+](CC)(CC)[Au-][S][C@@H]1O[C@H](COC(C)=O)[C@H](OC(C)=O)[C@H](OC(C)=O)[C@H]1OC(C)=O |  |  | ATCC 700603 |  |  |  | > 377 µM |
| CC[C@H](C)[C@@H]1NC(=O)[C@@H]2CSSC[C@@H]3NC(=O)[C@H](C(C)C)NC(=O)CNC(=O)CNC(=O)[C@H](CCCNC(=N)N)NC(=O)[C@H](CCCNC(=N)N)NC(=O)CNC(=O)[C@H](C(C)C)NC(=O)[C@@H]4CSSC[C@H](NC(=O)[C@H](CC(C)C)NC(=O)[C@H](CCCNC(=N)N)NC(=O)CNC(=O)CNC(=O)[C@H](CO)NC(=O)CNC(=O)[C@H](CO)NC(=O)CNC(=O)[C@@H]5CSSC[C@H](NC(=O)[C@H](CC(=O)O)NC(=O)[C@H](CO)NC(=O)[C@H](CC(=O)O)NC(=O)[C@H](CCCNC(=N)N)NC(=O)[C@H](CCCNC(=N)N)NC(=O)[C@H](CSSC[C@H](NC1=O)C(=O)N[C@@H](CCCNC(=N)N)C(=O)NCC(=O)N[C@@H](CC(N)=O)C(=O)NCC(=O)N[C@@H](Cc1ccc(O)cc1)C(=O)N5)NC(=O)[C@H](CCCNC(=N)N)NC(=O)[C@H](CCC(N)=O)NC(=O)[C@H](CC(C)C)NC(=O)[C@H]([C@@H](C)CC)NC(=O)[C@H](CCCCN)NC(=O)[C@@H]1CCCN1C3=O)C(=O)N1CCC[C@H]1C(=O)NCC(=O)N[C@@H](C)C(=O)N2)C(=O)N[C@@H](Cc1ccc(O)cc1)C(=O)N[C@H]1CSSC[C@H](NC(=O)[C@H](Cc2ccccc2)NC(=O)[C@H](CCCNC(=N)N)NC(=O)[C@H](CCCNC(=N)N)NC(=O)[C@H](CCCNC(=N)N)NC1=O)C(=O)N[C@@H](C(C)C)C(=O)N4 |  |  | K6 | CAMHB |  |  | 12.5 µM |
| CC(C)C[C@H](NC(=O)[C@H](CC(N)=O)NC(=O)[C@H](CCCNC(=N)N)NC(=O)[C@@H](CC(C)C)NC(=O)[C@H](Cc1ccccc1)NC(=O)[C@H](CC(=O)O)NC(=O)[C@H](CCCCN)NC(=O)[C@@H](CC(C)C)NC(=O)[C@H](CCCNC(=N)N)NC(=O)[C@H](CCC(N)=O)NC(=O)[C@@H](NC(=O)[C@@H](CC(C)C)NC(=O)[C@H](CCCNC(=N)N)NC(=O)[C@H](CCCCN)NC(=O)[C@H](Cc1ccccc1)NC(=O)CN)C(C)C)C(=O)N[C@H](C(N)=O)C(C)C |  | broth microdilution | ATCC 13883 |  |  |  | > 100 µM |
| CC[P+](CC)(CC)[Au-][S][C@@H]1O[C@H](COC(C)=O)[C@@H](O[C@@H]2O[C@H](COC(C)=O)[C@H](OC(C)=O)[C@H](OC(C)=O)[C@H]2OC(C)=O)[C@H](OC(C)=O)[C@H]1OC(C)=O |  |  | ATCC 700603 |  |  |  | > 265 µM |
| CCCCCCCCCC(=O)NCCCC[C@H](NC(=O)[C@H](CC(C)C)NC(=O)[C@H](CCCCN)NC(=O)[C@H](CCCCNC(=O)[C@H](CC(C)C)NC(=O)[C@H](CCN)NC(=O)[C@H](CCCCNC(=O)[C@H](Cc1ccccc1)NC(=O)[C@@H](N)CCCN)NC(=O)[C@H](Cc1ccccc1)NC(=O)[C@@H](N)CCCN)NC(=O)[C@H](CC(C)C)NC(=O)[C@H](CCN)NC(=O)[C@H](CCCCNC(=O)[C@H](Cc1ccccc1)NC(=O)[C@@H](N)CCCN)NC(=O)[C@H](Cc1ccccc1)NC(=O)[C@@H](N)CCCN)C(N)=O |  | broth microdilution | NCTC 418 |  |  | 37 °C | > 64 µg/mL |
| NC[C@@H]1O[C@H](O[C@H]2[C@@H](O)[C@H](O[C@@H]3[C@@H](O)[C@H](N)C[C@H](N)[C@H]3O[C@H]3O[C@H](CO)[C@@H](SCCF)[C@H](O)[C@H]3N)O[C@@H]2CO)[C@H](N)[C@@H](O)[C@@H]1O |  |  | AG215 |  |  |  | 4 µg/mL |
| Oc1c(Br)ccc2cccnc12 | microbial growth | agar dilution | ATCC700603 |  |  |  | 71.4 µM |
| CC(C)C[C@H](NC(=O)[C@H](CC(N)=O)NC(=O)[C@H](CCCNC(=N)N)NC(=O)[C@@H](CC(C)C)NC(=O)[C@H](Cc1ccc(-c2ccccc2)cc1)NC(=O)[C@H](CC(=O)O)NC(=O)[C@H](CCCCN)NC(=O)[C@@H](CC(C)C)NC(=O)[C@H](CCCNC(=N)N)NC(=O)[C@H](CCC(N)=O)NC(=O)[C@@H](NC(=O)[C@@H](CC(C)C)NC(=O)[C@H](CCCNC(=N)N)NC(=O)[C@H](CCCCN)NC(=O)[C@H](Cc1ccc(-c2ccccc2)cc1)NC(=O)CN)C(C)C)C(=O)N[C@H](C(N)=O)C(C)C |  | broth microdilution | ATCC 13883 |  |  |  | 3.1 µM |
| CN1CCC(NCCC2(Cc3ccc(Cl)cc3)CCCCC2)CC1 | microbial growth |  |  |  | 10 h |  | 200 µM |
| CC(=O)N1CCc2cc(S(=O)(=O)N3CCN(c4nnc(C(F)(F)F)s4)CC3)ccc21 |  | broth microdilution | 10031 |  | 22 h |  | > 64 µg/mL |
| CC(C)C(O)C(NC(=O)[C@H](Cc1ccc(O)cc1)NC(=O)C(Cc1ccc(O)c(Cl)c1)[N+](C)(C)C)C(=O)N[C@@H](C)C(=O)O (stereo partly shown) |  |  | ATCC 27736 |  |  |  | > 100 µM |
| Oc1ccc(C(F)(F)F)cc1-c1nc2c(Br)cc(Br)cc2[nH]1 |  |  | B9 |  |  |  | 25 µM |
| CCn1cc[n+](CC)[c]1[Au-]([Cl])([Cl])[Cl] |  | broth dilution | DSM 11678 |  | 20 h | 37 °C | 18.7 µM |
| COc1ccc(-c2ccn(CC[C@](C)(C(=O)NO)S(C)(=O)=O)c(=O)c2)c(F)c1 | microbial growth |  |  |  |  |  | 1 µg/mL |
| CCCS[C@H]1[C@H](O)[C@@H](N)[C@@H](O[C@H]2[C@H](O[C@@H]3O[C@H](CO)[C@@H](O[C@H]4O[C@@H](CN)[C@@H](O)[C@H](O)[C@H]4N)[C@H]3O)[C@@H](O)[C@H](N)C[C@@H]2N)O[C@@H]1CO |  |  | AG215 |  |  |  | 2 to 4 µg/mL |
| Oc1ccc(Cl)cc1-c1nc2cc(C(F)(F)F)ccc2[nH]1 |  |  | B9 |  |  |  | 25 µM |
| CC(C)C[C@@H](NC(=O)[C@@H](CC(C)C)NC(=O)[C@@H](CCCCN)NC(=O)[C@@H](CCCCNC(=O)[C@@H](CC(C)C)NC(=O)[C@@H](CC(C)C)NC(=O)[C@@H](CCCCNC(=O)[C@@H](CC(C)C)NC(=O)[C@@H](CCCCN)NC(=O)[C@@H](CCCCNC(=O)[C@@H](CC(C)C)NC(=O)[C@H](N)CCCCN)NC(=O)[C@@H](CC(C)C)NC(=O)[C@H](N)CCCCN)NC(=O)[C@@H](CC(C)C)NC(=O)[C@@H](CCCCN)NC(=O)[C@@H](CCCCNC(=O)[C@@H](CC(C)C)NC(=O)[C@H](N)CCCCN)NC(=O)[C@@H](CC(C)C)NC(=O)[C@H](N)CCCCN)NC(=O)[C@@H](CC(C)C)NC(=O)[C@@H](CC(C)C)NC(=O)[C@@H](CCCCNC(=O)[C@@H](CC(C)C)NC(=O)[C@@H](CCCCN)NC(=O)[C@@H](CCCCNC(=O)[C@@H](CC(C)C)NC(=O)[C@H](N)CCCCN)NC(=O)[C@@H](CC(C)C)NC(=O)[C@H](N)CCCCN)NC(=O)[C@@H](CC(C)C)NC(=O)[C@@H](CCCCN)NC(=O)[C@@H](CCCCNC(=O)[C@@H](CC(C)C)NC(=O)[C@H](N)CCCCN)NC(=O)[C@@H](CC(C)C)NC(=O)[C@H](N)CCCCN)C(N)=O |  | broth microdilution | NCTC 418 |  |  | 37 °C | 16 µg/mL |
| CNC(C)C1CCC(N)C(OC2C(N)CC(N)C(OC3OCC(C)(O)C(NC)C3O)C2O)O1 (stereo not shown) |  |  | 727 ESBL clinical isolate | TSB | 18 h | 37 °C | 32 µM |

Excerpt of the above:
| Compound | read-out | technique | strain | matrix | time | temperature | MIC |
| --- | --- | --- | --- | --- | --- | --- | --- |
| CC[C@H](C)[C@@H]1NC(=O)[C@@H]2CSSC[C@@H]3NC(=O)[C@H](C(C)C)NC(=O)CNC(=O)CNC(=O)[C@H](CCCNC(=N)N)NC(=O)[C@H](CCCNC(=N)N)NC(=O)CNC(=O)[C@H](C(C)C)NC(=O)[C@@H]4CSSC[C@H](NC(=O)[C@H](CC(C)C)NC(=O)[C@H](CCCNC(=N)N)NC(=O)CNC(=O)CNC(=O)[C@H](CO)NC(=O)CNC(=O)[C@H](CO)NC(=O)CNC(=O)[C@@H]5CSSC[C@H](NC(=O)[C@H](CC(=O)O)NC(=O)[C@H](CO)NC(=O)[C@H](CC(=O)O)NC(=O)[C@H](CCCNC(=N)N)NC(=O)[C@H](CCCNC(=N)N)NC(=O)[C@H](CSSC[C@H](NC1=O)C(=O)N[C@@H](CCCNC(=N)N)C(=O)NCC(=O)N[C@@H](CC(N)=O)C(=O)NCC(=O)N[C@@H](Cc1ccc(O)cc1)C(=O)N5)NC(=O)[C@H](CCCNC(=N)N)NC(=O)[C@H](CCC(N)=O)NC(=O)[C@H](CC(C)C)NC(=O)[C@H]([C@@H](C)CC)NC(=O)[C@H](CCCCN)NC(=O)[C@@H]1CCCN1C3=O)C(=O)N1CCC[C@H]1C(=O)NCC(=O)N[C@@H](C)C(=O)N2)C(=O)N[C@@H](Cc1ccc(O)cc1)C(=O)N[C@H]1CSSC[C@H](NC(=O)[C@H](Cc2ccccc2)NC(=O)[C@H](CCCNC(=N)N)NC(=O)[C@H](CCCNC(=N)N)NC(=O)[C@H](CCCNC(=N)N)NC1=O)C(=O)N[C@@H](C(C)C)C(=O)N4 |  |  | K6 | CAMHB |  |  | 12.5 µM |
| CNC(C)C1CCC(N)C(OC2C(N)CC(N)C(OC3OCC(C)(O)C(NC)C3O)C2O)O1 (stereo not shown) |  |  | 727 ESBL clinical isolate | TSB | 18 h | 37 °C | 32 µM |
| COc1c(NC(=O)c2ccc(NC(=O)c3ccc(NC(=O)[C@H](CC#N)NC(=O)c4ccc(NC(=O)/C(C)=C/c5ccc(O)cc5)cc4)cc3)c(OC)c2O)ccc(C(=O)O)c1O | microbial growth |  | DSM30104 |  |  |  | > 64 µg/mL |
| CC(C)C[C@H](NC(=O)[C@H](CC(N)=O)NC(=O)[C@H](CCCNC(=N)N)NC(=O)[C@@H](CC(C)C)NC(=O)[C@H](Cc1ccccc1)NC(=O)[C@H](CC(=O)O)NC(=O)[C@H](CCCCN)NC(=O)[C@@H](CC(C)C)NC(=O)[C@H](CCCNC(=N)N)NC(=O)[C@H](CCC(N)=O)NC(=O)[C@@H](NC(=O)[C@@H](CC(C)C)NC(=O)[C@H](CCCNC(=N)N)NC(=O)[C@H](CCCCN)NC(=O)[C@H](Cc1ccc(C(F)(F)F)cc1)NC(=O)CN)C(C)C)C(=O)N[C@H](C(N)=O)C(C)C |  | broth microdilution | ATCC 13883 |  |  |  | 50 µM |
